Measured values pooled from the literature.
Lines come from different studies, so protocols differ. ± gives the spread as reported.

SMILES | target or system | test | system | conditions | measurement | value
Clc1ccc(C(c2ccc(Cl)cc2)n2cc[n+](CC(OCc3ccc(Cl)cc3Cl)c3ccc(Cl)cc3Cl)c2)cc1 (centres unmarked) | Toxoplasma gondii | parasite growth, luciferase reporter | HFF, tachyzoite | 72 h | EC90 | 19200 nM
C[C@]12CCCN1CC1=NNC(=O)c3cc(F)cc4[nH]c2c1c34 | MGC-803 gastric cancer cells | cell viability |  | concentration not given, with: with temozolomide | EC50 | > 10000 nM
CCn1cc(-c2cc(Cn3ccnc3)cc3c2CCN([C@H](c2cc(OC)ccn2)C2CC2)C3=O)c(C(F)(F)F)n1 | COLO-668 | cell growth, inhibitor |  | 120 h | EC50 | 530 nM
N#Cc1ccc(C[C@@H](Nc2ncc(-c3ccc(F)cc3)o2)C(=O)N2CCc3ccccc32)cc1 | human neutrophils | calcium mobilization, agonist |  |  | EC50 | > 50000 nM
O=C(/C=C/c1ccc(O)c(O)c1)OCCc1ccccc1 | Toxoplasma gondii | parasite growth | HFF, bradyzoite, glutamine-induced |  | EC50 | 8640 nM
CCOC(=O)c1cc(Cl)cc(NC(=O)c2sc(Cl)cc2S(=O)(=O)N(C)c2ccc(OCC)c(OCC)c2)c1 | CCF-STTG1 | ABCA1 promoter reporter, activator, luciferase reporter |  |  | EC50 | 247 nM
N#Cc1ccc(C[C@H](Nc2c(Nc3ccc(F)cc3)c(=O)c2=O)C(=O)N2CCc3ccccc32)cc1 | human neutrophils | calcium mobilization, agonist |  |  | EC50 | 900 ± 400 nM
COc1cnc2cccc(N3CCc4c(cc(Cn5ccnc5C)cc4-c4cn(C)nc4C(F)(F)F)C3=O)c2c1 | NCI-H1792 | cell growth, inhibitor |  | 120 h | EC50 | 121 nM
N#Cc1ccc(C[C@@H](Nc2nnc(-c3ccc(F)cc3)o2)C(=O)N2CCc3ccccc32)cc1 | human neutrophils | calcium mobilization, agonist |  |  | EC50 | > 50000 nM
CCCNC(=O)[C@H]1O[C@@H]1C(=O)N[C@H](C(=O)N1CCC[C@H]1C(=O)OC)[C@@H](C)CC | MCF-10A | cell viability, MTT |  | 4 h, dark | EC50 | > 100000 nM
O=C(c1cc(Cc2n[nH]c(=O)c3ccccc23)ccc1F)N1CCN(C(=O)C2CC2)CC1 | MEF PTEN-/- | cell proliferation, CellTiter-Glo |  | 168 h | EC50 | 240 nM

Some of these lines once more:
SMILES | target or system | test | system | conditions | measurement | value
CCn1cc(-c2cc(Cn3ccnc3)cc3c2CCN([C@H](c2cc(OC)ccn2)C2CC2)C3=O)c(C(F)(F)F)n1 | COLO-668 | cell growth, inhibitor |  | 120 h | EC50 | 530 nM
